# Results pooled from the literature.
# Compare with care: the assays were run in different laboratories. ± marks the error that the study gave.
# Organism: Klebsiella pneumoniae
SMILES,test,system,conditions,MIC
CCCCCCCCCCCCCC(=O)N[C@@H]1CCNC(=O)[C@H](CC(=O)O)NC(=O)[C@H](C(C)C)NC(=O)[C@@H](Cc2ccc(O)cc2)NC(=O)[C@H](CCN)NC(=O)[C@H](CC(C)C)NC(=O)[C@@H](Cc2ccccc2)NC(=O)[C@H](CCN)NC(=O)[C@H](CC(C)C)NC(=O)[C@H](CCN)NC(=O)[C@H]([C@@H](C)O)NC1=O,broth microdilution,BNCC 186113,,> 64 µg/mL
CC(C)C[C@H](NC(=O)[C@H](Cc1ccc(O)cc1)NC(=O)[C@@H]1CCCN1C(=O)[C@H](CCCNC(=N)N)NC(=O)[C@@H]1CCCN1C(=O)[C@H](CCCCN)NC(=O)[C@H](CC(=O)O)NC(=O)[C@@H]1CCCN1C(=O)[C@H](CCCNC(=N)N)NC(=O)C1(N)CCCCC1)C(=O)N1CCC[C@H]1C(=O)N[C@@H](CCCNC(=N)N)C(=O)N1CCC[C@H]1C(=O)N[C@@H](CCCNC(=N)N)C(=O)N1CCC[C@H]1C(=O)N1CCC[C@H]1C(=O)N[C@@H](CCCNC(=N)N)C(=O)N1CCC[C@H]1C(=O)N[C@H](C(=O)N[C@@H](CCCNC(=N)N)C(=O)N[C@@H](CSc1c(F)c(F)c(SC[C@H](NC(=O)[C@H](CCCNC(=N)N)NC(=O)[C@@H](NC(=O)[C@@H]2CCCN2C(=O)[C@H](CCCNC(=N)N)NC(=O)[C@@H]2CCCN2C(=O)[C@@H]2CCCN2C(=O)[C@H](CCCNC(=N)N)NC(=O)[C@@H]2CCCN2C(=O)[C@H](CCCNC(=N)N)NC(=O)[C@@H]2CCCN2C(=O)[C@H](CC(C)C)NC(=O)[C@H](Cc2ccc(O)cc2)NC(=O)[C@@H]2CCCN2C(=O)[C@H](CCCNC(=N)N)NC(=O)[C@@H]2CCCN2C(=O)[C@H](CCCCN)NC(=O)[C@H](CC(=O)O)NC(=O)[C@@H]2CCCN2C(=O)[C@H](CCCNC(=N)N)NC(=O)C2(N)CCCCC2)C(C)C)C(=O)NN)c(F)c1F)C(=O)NN)C(C)C,bacterial growth,"ATCC 13883, 100% Mueller-Hinton broth","90 min, 37 °C, strain ATCC 13883",3.6 ± 0.1 µg/mL
CC[C@@H](C)[C@@H](NC(=O)[C@@H](C)NC(=O)[C@H](NC(=O)[C@@H](CC(=O)O)NC(=O)[C@@H](CCCCN)NC(=O)[C@@H](CO)NC(=O)[C@H](NC(=O)[C@@H](CC(N)=O)NC(=O)[C@@H](C)NC(=O)[C@H](NC(=O)[C@@H](CCC(=O)O)NC(=O)[C@@H](CCCCN)NC(=O)[C@H](NC(=O)[C@H](NC(=O)[C@@H](Cc1c[nH]cn1)NC(=O)[C@@H](CCCCN)NC(=O)[C@H](NC(=O)[C@@H](CCCCN)NC(=O)[C@@H](CCCCN)NC(=O)[C@H](NC(=O)[C@@H](CC(C)C)NC(=O)[C@@H](CCCCN)NC(=O)[C@@H](CC(N)=O)NC(=O)[C@@H](Cc1ccccc1)NC(=O)[C@@H](CCCNC(=N)N)NC(=O)[C@@H](CCCCN)NC(=O)[C@@H](CCCNC(=N)N)NC(=O)[C@@H](Cc1ccccc1)NC(=O)CN)C(C)C)C(C)C)[C@H](C)O)[C@H](C)CC)[C@H](C)O)C(C)C)C(C)C)C(=O)N[C@@H](C(=O)N[C@H](C)C(=O)NCC(=O)N[C@H](CO)C(=O)NCC(=O)N[C@@H](C(=O)N[C@H](C)C(=O)N[C@@H](C(=O)NCC(=O)N[C@H](C)C(=O)N[C@H](C)C(=O)N[C@H](CCSC)C(N)=O)C(C)C)C(C)C)C(C)C,,"isolate RKI 93/10, CAMHB",,16 µg/mL
COc1ccc2ccc3c(c2c1)C=[N+]1C2CCCCC2[N+]2=Cc4c(F)cccc4[O][Au-]21[O]3.F[P-](F)(F)(F)(F)F (centres unmarked),"bacterial growth, broth microdilution",carbapenem-resistant,24 h,> 20 µM
CN1/C(=C/C=C/c2cc(-c3ccccc3)cc(-c3ccccc3)[o+]2)C(C)(C)c2ccccc21,broth dilution,"NR-15411, KPC",,16 µg/mL
CC(C)C[C@H](NC(=O)[C@H](C)NC(=O)CNC(=O)[C@@H](NC(=O)[C@@H](NC(=O)[C@H](CCCCN)NC(=O)[C@H](CCCCN)NC(=O)[C@H](CC(C)C)NC(=O)[C@H](CC(C)C)NC(=O)[C@H](CCCCN)NC(=O)[C@H](CC(C)C)NC(=O)[C@H](CC(C)C)NC(=O)[C@@H](N)CCCCN)C(C)C)C(C)C)C(=O)NCC(N)=O,,"ATCC 700603, CAMHB","18 h, 37 °C",22 µM
COc1ccc2ccc3c(c2c1)C=[N+]1C2CCCCC2[N+]2=Cc4cccc(OC)c4[O][Au-]21[O]3.F[P-](F)(F)(F)(F)F (centres unmarked),"bacterial growth, broth microdilution",carbapenem-resistant clinical isolate,24 h,10 µM
CC(C)[C@H](NC(=O)[C@H](CCCCN)NC(=O)[C@H](CCCNC(=N)N)NC(=O)CNC(=O)[C@H](C)NC(=O)[C@H](CC(N)=O)NC(=O)[C@H](CCCNC(=N)N)NC(=O)[C@@H](NC(=O)[C@H](CCCCN)NC(=O)[C@H](CC(=O)O)NC(=O)[C@@H](NC(=O)[C@@H](NC(=O)[C@H](CCCNC(=N)N)NC(=O)[C@H](CCCNC(=N)N)NC(=O)[C@H](Cc1c[nH]c2ccccc12)NC(=O)[C@H](Cc1c[nH]c2ccccc12)NC(=O)CN)[C@@H](C)O)C(C)C)C(C)C)C(=O)O,,clinical strain,"18 h, 37 °C",> 256 µg/mL
COc1ccc2ccc3c(c2c1)C=[N+]1C2CCCCC2[N+]2=Cc4cc(C)ccc4[O][Au-]21[O]3.F[P-](F)(F)(F)(F)F (centres unmarked),"bacterial growth, broth microdilution",carbapenem-resistant clinical isolate,24 h,> 20 µM
CC[C@H](C)CCCCC(=O)N[C@@H](CCN)C(=O)N[C@H](C(=O)N[C@H](CO)C(=O)N[C@H]1CCNC(=O)[C@H](CC(C)C)NC(=O)[C@H](CCN)NC(=O)[C@H](CCN)NC(=O)[C@H]([C@@H](C)CC)NC(=O)[C@@H](CC(C)C)NC(=O)[C@H](CCN)NC1=O)[C@@H](C)O,,"0497, mcr-1",,2 µg/mL
COc1ccc2ccc3c(c2c1)C=[N+]1C2CCCCC2[N+]2=Cc4ccc(F)cc4[O][Au-]21[O]3.F[P-](F)(F)(F)(F)F (centres unmarked),"bacterial growth, broth microdilution",carbapenem-resistant clinical isolate,24 h,10 µM
C[C@H]1COc2c(N3CCN(C)CC3)c(F)cc3c(=O)c(C(=O)N[C@@H](CCCNC(=N)N)C(=O)N[C@@H](Cc4ccc(-c5ccccc5)cc4)C(=O)N[C@@H](CCCNC(=N)N)C(=O)N[C@@H](Cc4ccc(-c5ccccc5)cc4)C(=O)N[C@@H](CCCNC(=N)N)C(N)=O)cn1c23,broth microdilution,ATCC 2814,"18 h, 37 °C",20 µM
CC(C)C[C@H](NC(=O)[C@H](Cc1ccc(O)cc1)NC(=O)[C@@H]1CCCN1C(=O)[C@H](CCCNC(=N)N)NC(=O)[C@@H]1CCCN1C(=O)[C@H](CCCCN)NC(=O)[C@H](CC(=O)O)NC(=O)[C@@H]1CCCN1C(=O)[C@H](CCCNC(=N)N)NC(=O)C1(N)CCCCC1)C(=O)N1CCC[C@H]1C(=O)N[C@@H](CCCNC(=N)N)C(=O)N1CCC[C@H]1C(=O)N[C@@H](CCCNC(=N)N)C(=O)N1CCC[C@H]1C(=O)N1CCC[C@H]1C(=O)N[C@@H](CCCNC(=N)N)C(=O)N1CCC[C@H]1C(=O)N[C@H](C(=O)N[C@@H](CCCNC(=N)N)C(=O)N[C@@H](CSCC(N)=O)C(=O)NN)C(C)C,bacterial growth,"ATCC 13883, 100% Mueller-Hinton broth","90 min, 37 °C, strain ATCC 13883",3.2 ± 0.1 µg/mL
CC(C)[C@H](NC(=O)[C@H](CCCCN)NC(=O)[C@H](CCCNC(=N)N)NC(=O)[C@@H](NC(=O)[C@H](C)NC(=O)[C@H](CC(N)=O)NC(=O)[C@H](CCCNC(=N)N)NC(=O)[C@@H](NC(=O)[C@H](CCCCN)NC(=O)[C@H](CCCCN)NC(=O)[C@@H](NC(=O)[C@@H](NC(=O)[C@H](CCCNC(=N)N)NC(=O)[C@H](CCCNC(=N)N)NC(=O)[C@H](Cc1c[nH]c2ccccc12)NC(=O)[C@H](Cc1c[nH]c2ccccc12)NC(=O)CN)[C@@H](C)O)C(C)C)C(C)C)C(C)C)C(=O)O,,clinical strain,"18 h, 37 °C",64 µg/mL
C[C@@](O)(C(F)F)[C@H](NC(=O)c1ccc(C#CC#CC2CC2)cc1)C(=O)NO,broth microdilution,"10031, CAMHB",,0.0025 µg/mL
COc1ccc2ccc3c(c2c1)C=[N+]1C2CCCCC2[N+]2=Cc4c(C)cccc4[O][Au-]21[O]3.F[P-](F)(F)(F)(F)F (centres unmarked),"bacterial growth, broth microdilution",carbapenem-resistant clinical isolate,24 h,10 µM
CN[C@H](CC(C)C)C(=O)N[C@H]1C(=O)N[C@@H](CC(N)=O)C(=O)N[C@H]2C(=O)N[C@H]3C(=O)N[C@H](C(=O)N[C@H](C(=O)O)c4cc(O)cc(O)c4-c4cc3ccc4O)[C@H](O)c3ccc(c(Cl)c3)Oc3cc2cc(c3O[C@@H]2O[C@H](CO)[C@@H](O)[C@H](O)[C@H]2O[C@H]2C[C@](C)(NCc3ccc(C(=O)OCCCCCCN(Cc4ccccn4)Cc4ccccn4)cc3)[C@H](O)[C@H](C)O2)Oc2ccc(cc2Cl)[C@H]1O,,BAA-2146 NDM-1,compound alone,> 50 µM

# Repeated from above:
SMILES,test,system,conditions,MIC
CCCCCCCCCCCCCC(=O)N[C@@H]1CCNC(=O)[C@H](CC(=O)O)NC(=O)[C@H](C(C)C)NC(=O)[C@@H](Cc2ccc(O)cc2)NC(=O)[C@H](CCN)NC(=O)[C@H](CC(C)C)NC(=O)[C@@H](Cc2ccccc2)NC(=O)[C@H](CCN)NC(=O)[C@H](CC(C)C)NC(=O)[C@H](CCN)NC(=O)[C@H]([C@@H](C)O)NC1=O,broth microdilution,BNCC 186113,,> 64 µg/mL
